# Assay results from different studies.
# Parts stem from different laboratories: compare values within a part only. Changes are numbered by the printed parent chain.

# Set 1
# Target: UBE2M UBC core domain (UniProt P61081)
# Technique: yeast two-hybrid
# Matrix: yeast
# Setting: mostly zero background
# Relative to: not given
# Direction: higher = stronger interaction
# B1: TRIM68 RING domain (UniProt Q6AZZ1); chain LVEAIVEEVACPICMTFLREPMSIDCGHSFCHSCLSGLWEIPGESQNWGYTCPLCRAPVQPRNLRP
# B2: RNF10 RING domain (UniProt Q8N5U6); chain VRICSHEVPSCPICLYPPTAAKITRCGHIFCWACILHYLSLSEKTWSKCPICYSSVHKKDLKS
# B3: TRIM2 RING domain (UniProt Q9C040); chain VRQIDKQFLICSICLERYKNPKVLPCLHTFCERCLQNYIPAHSLTLSCPVCRQTSILPEKGV
# B4: TRIM34 RING domain (UniProt Q9BYJ4); chain ILLNVQEEVTCPICLELLTEPLSLDCGHSLCRACITVSNKEAVTSMGGKSSCPVCGISYSFEHLQA
# B5: MDM2 RING domain (UniProt Q00987); chain TQDKEESVESSLPLNAIEPCVICQGRPKNGCIVHGKTGHLMACFTCAKKLKKRNKPCPVCRQPIQMIVLTYFP
# B6: RFPL3 RING domain (UniProt O75679); chain MAALFQEASSCPVCSDYLEKPMSLECGCTVCLKCINSLQKEPHGEDLLCCCCSMVSQRNKIRP
# Target sequence (chain): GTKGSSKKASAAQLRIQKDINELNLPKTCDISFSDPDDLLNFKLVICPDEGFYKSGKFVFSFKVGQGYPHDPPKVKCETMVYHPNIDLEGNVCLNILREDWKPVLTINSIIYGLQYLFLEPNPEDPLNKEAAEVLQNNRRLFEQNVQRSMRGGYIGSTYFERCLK
Molecule,lacZ reporter activity
PLRRLQEEKLCKICMDRHIAVVFIPCGHLVTCKQCAEAVDRCPMCSAVIDFKQRVF (BIRC8 RING domain (UniProt Q96P09)),0
B1 (TRIM68 RING domain),0
B2 (RNF10 RING domain),0
B3 (TRIM2 RING domain),0
B4 (TRIM34 RING domain),0
AAQLLEEKLTCAICLGLYQDPVTLPCGHNFCGACIRDWWDRCGKACPECREPFPDGAELR (TRIM65 RING domain (UniProt Q6PJ69)),0
B5 (MDM2 RING domain),0
B6 (RFPL3 RING domain),0
VPADASPDSKCPICLDRFDNVSYLDRCLHKFCFRCVQEWSKNKAECPLCKQPFDSIFHSV (TOPORS RING domain (UniProt Q9NS56)),0

# Set 2
# Target: Histone acetyltransferase KAT6A, both winged helices, GST fusion (KAT6A, Homo sapiens, UniProt Q92794, residues 1-181)
# Technique: protein binding microarray
# Form: double-stranded DNA, one strand shown
# Matrix: in vitro
# Tested at: not given
# Setting: 8-mer, flanks averaged, mean of 2 arrays, mostly near background
# Relative to: not given
# Direction: higher = stronger binding
# Residues (chain): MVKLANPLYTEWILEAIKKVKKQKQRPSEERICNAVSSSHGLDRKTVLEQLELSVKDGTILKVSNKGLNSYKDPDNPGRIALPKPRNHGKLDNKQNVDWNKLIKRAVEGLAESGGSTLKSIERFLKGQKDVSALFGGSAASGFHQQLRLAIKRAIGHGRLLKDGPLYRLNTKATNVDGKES
Sequence,E-score
GTGAAATA,-0.127
AAGATTGT,-0.211
TCTGCCAA,-0.0967
ATCAAGTG,-0.132
CTTAGCAA,-0.12
ACGAAACA,-0.00987
CTAGGCCA,-0.0409
CGCGTGTC,0.275
CTTTATCC,-0.00851
CGACTGAG,-0.143
GTCAACTA,-0.0831
GCACCCAA,-0.0312
CAGGAAGG,-0.125
CTCAGTGC,-0.064
ATCTAGGA,-0.0733
GAATCGCA,-0.0316
CAGACATC,-0.174
CTATTCAA,-0.14
CGTTATAA,0.0667
ATACATCA,-0.184
ACCTGTCG,-0.00334
GCTGAGTA,-0.115
AATAGTCG,0.0431
CCAGAGAG,-0.28
AATCCGTA,0.115

# Set 3
# Target: RING finger protein unkempt homolog, zinc fingers 1-6, GST-SBP tag (UNK, Homo sapiens, UniProt Q9C0B0, residues 30-357)
# Technique: RNA Bind-n-Seq
# Form: RNA
# Matrix: in vitro
# Tested at: not given
# Setting: RNA with constant flanks, human-mouse chimeric sites, ends assumed
# Relative to: input RNA pool
# Direction: higher = stronger binding
# All sequences stand within: GGGAGUUCUACAGUCCGACGAUC … CAACAGAGGAUUGAGCAUCA
# Residues (chain): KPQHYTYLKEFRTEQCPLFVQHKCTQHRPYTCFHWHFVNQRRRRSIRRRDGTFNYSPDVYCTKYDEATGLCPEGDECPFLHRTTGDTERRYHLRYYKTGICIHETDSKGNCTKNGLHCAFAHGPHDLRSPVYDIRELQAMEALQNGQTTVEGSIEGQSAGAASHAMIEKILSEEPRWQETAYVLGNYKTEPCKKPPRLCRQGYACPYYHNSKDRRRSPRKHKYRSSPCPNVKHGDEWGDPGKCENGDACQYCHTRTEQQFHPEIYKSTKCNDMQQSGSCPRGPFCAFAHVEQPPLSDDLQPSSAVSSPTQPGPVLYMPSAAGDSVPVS
Sequence,bound/input enrichment
GUAUACGGUUAUCGAGGAAAGGACUGUAGAGCGAAUGUUUACCUUCUUCCCACAGGGGAGAUAGUUUAUUUUAUCGCCUCAGUGGUAGUCCUGUUUAAUUAUGAGGAGAGAACUCAGCGA,0.252 ratio
UUAAUCCCCUUUACUGCUCCCCCACUUCUCAUGGUAAUGACAAAAACUUAUAUCCCCGUCCUAGCUUUUACUCAGAUGGCUUAUGGAGCCGGUUUCCUAGCUUUCUUGGGAGGGAUCAGA,0.847 ratio
GUAGCUGGGACUACAGAAAUGCUGGUAGUGCUCCGGCGUGAGUCGUGACUUCUGAUGUCCCAGCAAAUGUUGGCAUUGUUGACUGCUGAGAAGAUACUUCUGAGGACCCACGUCUAAGGU,0.0833 ratio
CUGGCACUCUAUCAGAUAUAUUAAUUUUUUAAUGUAGAUAAAAUUUCAAAAAUGAAUGGCUACUUUACGUGAUAGAUUAGGGUUUUACUAUAUAUGUGUACAUAUGUAUAUAUAUAUAUA,3.12 ratio
UUGCUACUGACUCCCUGGGUUAAAUUCCUGUGGGAAUCAUACAGGCAGUGUUUGGACCUUCUUCGAAACAAUUCUAGAGUAGAGCGCCUUUACCAUGAUAUUGCCCAACAAGCUUUCAAA,0.136 ratio
AGAUUCCCCCUCCUGAGACCUCCUCCGAAGUUGGAGUCUCUUACAGAUGCCUCAUCCCCUGUUAGCGUUUUGGUCUGGACCACCCAGCCUUGGACAAUUCCCGCCAACCAGGCAAUUUGC,0.264 ratio
GCCACCAAUUCCAGCCAACAUGACCCUUGCUGCCUACAAAGAGAAGAUGAAGGAGCUCCCGCUGGUGUCCUUGUUCUGCUCCUGCUUCUUGUCUGAUCCCCUGAAUAAGUCGUCCUACAA,0.347 ratio
GUGUCCUGCUUUCAACUAUCACUGAGGAGGCAUCUCUACUAUUCUGUGAGCAUCAGGACUGUAGCGCUGUGUCACCACAUGAGAGUUCAGAAGCAGCCUUUCUGUGGAGGGUGGGAAUGA,0.179 ratio
AGAUUCCCCCUCCUGAGACCUCCUCCGAAGUUGGAGUCUCUUAUAGAUGCCUCAUCCCCUGUUAGCGUUUUAGUUUGGACCACCCAGCCUUGGACAAUUCCCGCCAACCAGGCAAUUUGC,1.12 ratio
UCGGAUGCUGUGCUGGGUCACUUUUCAUAUCCAGAUCCUUCCCAGUGGACAGAUGAAGAACUGGGAAUCCCUCCUGAUGAUGAAGACUGACACUGUAAACUCUCUGGACGAGUAGGAGCA,0.497 ratio
AGCACAACACCAGCUAAGCUCAGGAACCCUUGUACAAGUGAACAAAACUGCACCAGCCCAUUUAGCUACAAAAAUGUGCUUAGUCUUACUGACAGAGGAGAGUUUUUCAAUGAACUUGUU,0.767 ratio

# Set 4
# Target: ABI1, truncated, D143A, DHFR fusion (Arabidopsis thaliana)
# Technique: DHFR PCA, deep sequencing
# Matrix: yeast
# Setting: methotrexate growth selection, single substitutions
# With: (+)-ABA 0 µM
# Relative to: wild-type fitted maximum
# Direction: higher = stronger binding
# Parent: PYL1, truncated, DHFR fusion (Arabidopsis thaliana); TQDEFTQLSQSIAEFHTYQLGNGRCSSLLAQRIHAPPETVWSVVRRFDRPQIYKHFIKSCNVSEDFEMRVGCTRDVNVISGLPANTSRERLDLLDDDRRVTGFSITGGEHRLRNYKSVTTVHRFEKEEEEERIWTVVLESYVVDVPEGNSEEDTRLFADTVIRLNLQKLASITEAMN
Change,relative binding score
F66A,0.814%
R123C,10.8%
F157H,11.8%
G21Q,29.3%
V143Q,0.826%
C60T,2.87%
R45K,2.69%
Y115A,7.77%
W41P,-0.42%
V78Y,86.3%
K58L,1.06%
D48N,7.06%

# Set 5
# Target: RNA binding protein fox-1 homolog 2, RRM domain, GST-SBP tag (RBFOX2, Homo sapiens, UniProt O43251-10, residues 100-194)
# Technique: RNA Bind-n-Seq
# Form: RNA
# Matrix: in vitro
# Tested at: 365 nM
# Setting: natural RNA segment, single round, ends assumed
# Relative to: no-protein control
# Direction: higher = stronger binding
# All sequences stand within: GGGAGUUCUACAGUCCGACGAUC … UGGAAUUCUCGGGUGCCAA
# Target sequence (chain): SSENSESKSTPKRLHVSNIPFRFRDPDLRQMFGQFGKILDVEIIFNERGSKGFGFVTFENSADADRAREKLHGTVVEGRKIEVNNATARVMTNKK
Sequence,RBNS enrichment (R)
AAGUUGGGUUUGGUUCUGUUGUUAUGAUUGUUUUGUCGUGGUGCUUGUGUUCAGUUAUAUUCUCUCUCUCUCUCAUUUCAAAUACUGCUUGACAAUUCGAAAAUGAACCA,2.2
GUAUCGUAUACUAUUAUGGAGUAUUUAAAAGACUCAAGUUCAAAUUAACAUGCUUCUUUUAUUCUUCAAAGCAAUUCUUUACAACCUGACCAUGUAAAAGAUCUGUUACC,0.462
AUUGCUUGGUUUUGAUUAAAGUCUGAGCCUGAUACUGAUAUGAUUUUAAAGCGUAGCUGAACCGACUGAAACUAUUAUGGAGAUUACAAUAAAUAAUUGCAUUCAAUCUG,0.317
GGGGCCACUCCACCCUUAGGGAGCACAUGAAGAAGCUCCCUAAGAAGUUCUGCUCCUUAGCCAUCCUUUCCUGUAAUUUAUGUCUCUCCCUGAGGUGAGGUUCAGGUUUA,0.504
CACUAAAAUUUCUCUGUGUUGUUACAGUCUUAGAGGUUGCAGUACUAUAUUGUAAGCUUUGGUGUUUGUUUAAUUAGCAAUAGGGAUGGUAGGAUUCAAAUGUGUGUCAU,0.361
CAGGACCCAGGACCUCUGGUUCUCUCCUUGUUCUGGGCAGUGAGGAGCAUAGGACCUGGUCUCUGGCUCUCCUCCCCCCUGCUGUGUAAAUAGUCUCCCCAUCCCAUGAG,0.332
UCCUAAGUCCCUGCCCCCUCCCCUUCACACCAUAACUAGGUAACAGUUUGAUAACUAGGGAAGAAAGCAGAACAGUUAAGCAGCCGCCACAUCCCCGCUGGCUGGGGGCC,0.299
CCAAUGAUGCUGUCAGAUAUAUCUGCUUUCUCAAGUUUAAAAGAAUUCAAAUUAACUUCCUUUGAGUCUUUGUUAAAAGAGAAAAUAAAAAAAUCUCAAGCAAACUUGGA,0.642
AGCAGCAAUUGCAGAGUGACCAGUGAACUUUAUGGACUUAGCUGACAACUCCUAGAACAUGUGCACCCAUGCAUAUGAUGACAGAUGUCUGCUUUUAAUGCAGCUGUGGA,0.357
AUUUUCAACUUUAUAAAGAUAAAAUAUCCUCAGGGGUGGAGAAGUGUCGUUUUCAUAACUUGCUGAAUUUCAGGCAUUUUGUUCUACAUGAGGACUCAUAUAUUUAAGCC,0.77
CUAAAAUUAUAAGUUUAGAGAAUCCUGUAAGAGGGGUGGGUGCAUGUCUUAAUGCUGAGAAGCAGCAGCUUUGGGGUUGAAUUUACUUGAAUGGUUUAAAAAGAUUGCAU,5.19
UUUAAUGAAGAAAGUGGAAAACAAGGAAGUCAAAGCAAGGAAACUAUGUAACAUGUAGGAAGUAGGAAGUAAAUUAUAGUGAUGUAAUCUUGAAUUGUAACUGUUCUUGA,0.955

# Some of these lines once more (set 1):
Molecule,lacZ reporter activity
B2 (RNF10 RING domain),0
AAQLLEEKLTCAICLGLYQDPVTLPCGHNFCGACIRDWWDRCGKACPECREPFPDGAELR (TRIM65 RING domain (UniProt Q6PJ69)),0
B6 (RFPL3 RING domain),0
B5 (MDM2 RING domain),0
PLRRLQEEKLCKICMDRHIAVVFIPCGHLVTCKQCAEAVDRCPMCSAVIDFKQRVF (BIRC8 RING domain (UniProt Q96P09)),0
VPADASPDSKCPICLDRFDNVSYLDRCLHKFCFRCVQEWSKNKAECPLCKQPFDSIFHSV (TOPORS RING domain (UniProt Q9NS56)),0
B3 (TRIM2 RING domain),0
B4 (TRIM34 RING domain),0
B1 (TRIM68 RING domain),0
